Earlier results as cited in several papers.
± marks the error that the study gave.
UniProt P21554, sequence (whole entry, looked up): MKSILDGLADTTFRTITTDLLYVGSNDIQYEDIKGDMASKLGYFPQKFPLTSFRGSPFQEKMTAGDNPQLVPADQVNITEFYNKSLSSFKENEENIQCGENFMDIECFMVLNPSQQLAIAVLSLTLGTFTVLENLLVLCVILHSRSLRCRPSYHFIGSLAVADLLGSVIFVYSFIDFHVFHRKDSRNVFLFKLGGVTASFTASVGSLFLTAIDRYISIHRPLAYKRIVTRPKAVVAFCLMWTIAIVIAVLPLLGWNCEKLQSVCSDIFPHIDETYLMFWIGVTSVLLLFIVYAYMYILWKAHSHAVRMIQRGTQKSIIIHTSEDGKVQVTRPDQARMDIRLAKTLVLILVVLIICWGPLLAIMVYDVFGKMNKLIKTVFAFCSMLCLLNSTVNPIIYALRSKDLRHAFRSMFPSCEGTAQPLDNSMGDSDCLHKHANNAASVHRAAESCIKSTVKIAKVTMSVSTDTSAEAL

SMILES | target or system | assay | system | conditions | how to read | measurement | value
COc1ccc2c(c1)[C@]13CCCC[C@@H]1[C@H](C2)N(C)CC3 | CYP2D6 | substrate | healthy subjects, fed | oral, 30 mg, with: simeprevir 150 mg | reference: with over without simeprevir | AUClast ratio | 1.08
CO[C@H]1/C=C/O[C@@]2(C)Oc3c(C)c(O)c4c(O)c(c(/C=N/N5CCN(C6CCCC6)CC5)c(O)c4c3C2=O)NC(=O)/C(C)=C\C=C\[C@H](C)[C@H](O)[C@@H](C)[C@@H](O)[C@@H](C)[C@H](OC(C)=O)[C@@H]1C |  |  | caseum | 5 µM, 4 h, 37 °C |  | unbound fraction | 0.5 ± 0.1%
N[C@@H](Cc1ccc(N(CCCl)CCCl)cc1)C(=O)O | HGF gingival fibroblasts |  |  |  |  | CC50 | > 200 µM
N#C/N=C1\SCCN1Cc1ccc(Cl)nc1 | Folsomia candida | survival | LUFA soil, nominal |  |  | LC50 | 5 mg/kg dry soil
Cc1ncc2n1-c1ccc(Cl)cc1C(c1ccccc1F)=NC2 | CYP3A hepatic | item: parent to 1-hydroxy metabolite ratio | human | intravenous, 0.025 mg/kg, with: simeprevir 150 mg | reference: with over without simeprevir | metabolic ratio | 1.01
COc1ccc(CN(C(=O)[C@@H](N)Cc2c(C)cc(C(N)=O)cc2C)[C@@H](C)c2nc(-c3ccccc3)c[nH]2)cc1C(=O)O |  |  | rat | intravenous, 10 mg/kg, body weight 0.25 kg |  | total clearance | 11.1 mL/min
COC(=O)Nc1nc2cc(C(=O)c3ccc(F)cc3)ccc2[nH]1 |  |  | faeces | oral, concentration not given | reference: dose | unchanged compound in faeces | > 85%
O=C([C@@H](O)CO)N1CC=C(c2c(F)cc(N3C[C@H](COc4ccon4)OC3=O)cc2F)CC1 |  |  | caseum | 5 µM, 4 h, 37 °C |  | unbound fraction | 10.7 ± 1.7%
CCNc1nc(Cl)nc(NC(C)C)n1 | Daphnia magna |  | neonates | 48 h |  | LC50 | 78.8 µM
Cc1ccc(OC(C)(C)C(=O)N[C@@H](C)[C@@H](Cc2ccc(OCCF)cc2)c2cccc(C#N)c2)nc1 [fluorine-18 labelled] | CNR1 (Homo sapiens, UniProt P21554) | PET | human, thalamus |  |  | VT | 12.6 ± 7.6 mL/cm³
CC(=O)NNC(=O)c1ccncc1 |  |  | caseum | 5 µM, 4 h, 37 °C |  | unbound fraction | > 99.9%
